Assay results pooled from the literature.
Parts stem from different laboratories: compare values within a part only. Changes are numbered by the printed parent chain.

Series 1 — technique: DHFR PCA, dose-response; sample: yeast; with: (+)-ABA, dose series; direction: lower = more sensitive
Target: ABI1, truncated, D143A, DHFR fusion (Arabidopsis thaliana, UniProt P49597)
Setting: Hill fit, not affinity, not high confidence
Starting sequence: PYL1, truncated, DHFR fusion (Arabidopsis thaliana, UniProt Q8VZS8); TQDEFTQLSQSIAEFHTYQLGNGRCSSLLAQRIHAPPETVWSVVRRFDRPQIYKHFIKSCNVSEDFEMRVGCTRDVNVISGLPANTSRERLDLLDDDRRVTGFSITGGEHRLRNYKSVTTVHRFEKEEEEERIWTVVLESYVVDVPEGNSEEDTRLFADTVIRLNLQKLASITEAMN
`L91H` has an ABA EC50 of 107 µM.
For `T135Q`, the ABA EC50 was 1.9 µM.
`Y141T` gave an ABA EC50 of 37.8 µM.
For `Y141E`, the ABA EC50 was 122 µM.
For `S140F`, the ABA EC50 was 1690 µM.
The ABA EC50 of `I57R` is reported as 31.9 µM.
`K54M` gave an ABA EC50 of 32.6 µM.
`W41K` has an ABA EC50 of 2.13 µM.
With `R49P` the ABA EC50 was 110 µM.
`D153F` gave an ABA EC50 of 224 µM.
`W41P` gave an ABA EC50 of 1140 µM.
`P83G` gave an ABA EC50 of 172 µM.
`A158P` gave an ABA EC50 of 1620 µM.
The ABA EC50 of `S117K` is reported as 679 µM.
With `V161N` the ABA EC50 was 283 µM.
With `T135W` the ABA EC50 was 1.84 µM.
With `L91K` the ABA EC50 was 29.2 µM.
The ABA EC50 of `K54E` is reported as 165 µM.
For `I105Y`, the ABA EC50 was 0.0595 µM.
`N165L` has an ABA EC50 of 2.44 µM.

Series 2 — technique: protein binding microarray; molecule type: double-stranded DNA, one strand shown; sample: in vitro; concentration: not given; relative to: not given; direction: higher = stronger binding
Target: Histone acetyltransferase KAT6A, winged helix 1, GST fusion (KAT6A, Homo sapiens, UniProt Q92794, residues 1-85)
Setting: 8-mer, flanks averaged, mean of 2 arrays, mostly near background
Residues (chain): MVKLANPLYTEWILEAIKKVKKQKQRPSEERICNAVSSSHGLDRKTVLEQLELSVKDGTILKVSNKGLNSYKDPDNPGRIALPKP
For `CTCTGCTC`, the E-score was -0.279.
For `AACGTACG`, the E-score was 0.188.
With `CAAGAGAC` the E-score was -0.161.
With `CCTGATAC` the E-score was -0.0599.
The E-score of `CCCGAGCC` is reported as 0.277.
`ACAACGGA` has an E-score of 0.0728.
The E-score of `CAAGAAGC` is reported as 0.051.
`AAGAATAG` gave an E-score of -0.0183.
The E-score of `CGTGAGTA` is reported as 0.0133.
The E-score of `CAAATCTG` is reported as -0.167.
The E-score of `CCAACTAC` is reported as -0.146.
For `AGCATCAT`, the E-score was -0.151.
With `CAATACAG` the E-score was 0.0598.
With `ATCGCGGA` the E-score was 0.178.
`CCTACGGA` gave an E-score of 0.154.
With `CAAGCAAG` the E-score was -0.158.

Series 3 — technique: RNA Bind-n-Seq; molecule type: RNA; sample: in vitro; concentration: 200 nM; setting: whole 134-nt RNA, ends assumed; with: 150 mM LiCl; relative to: input library; direction: higher = stronger binding; each molecule: 7-deaza-guanosine replaces G
Target: Fragile X messenger ribonucleoprotein 1, C-terminal low-complexity region (Fmr1, Mus musculus, UniProt P35922)
Constant ends, left off below: GGGAGUUCUACAGUCCGACGAUC … UGGAAUUCUCGGGUGUCAAGG
`CUGUGCUACACAUCGUAUGUACCGAAUCGGUUUUUUUGGGUUUUUUUGGGUUUUUUUGGGGAAAGUAUUAUGUUACGCCGUUCGGAUCUG` gave a log2 enrichment of 0.897.
`CCUCAAGUCCUGUGCUACACAUCGUAUGUACCGAAUCGGAAGGAAGGGAAGGGAAAGUAUUAUGUUACGCCGUUCGGAUCUGCACUUCCA` gave a log2 enrichment of -0.974.
`UAACUUUAGAGGAGGAUCUGAUGGAUAUGGCAGUGGACGUGGAUUUGGUGAUGGCUAUAAUGGGUAUGGAGGAGGACCUGGAGGUGGCAA` has a log2 enrichment of 0.145.
The log2 enrichment of `UAACUUUAGAGGAGGAUCUGAUGGAUAUGGCAGUGAACGUGGAUUUGGGGAUGGCUAUAAUGGGUAUGGAGGAGGACCUGGAGGUGGCAA` is reported as 0.286.
The log2 enrichment of `AAGUCCUGUGCUACACAUCGUAUGUACCGAAUCGGGUUUUUGGGUGGGAAAAAGGGAAAGUAUUAUGUUACGCCGUUCGGAUCUGCACUU` is reported as -1.12.
`AAGUCCUGUGCUACACAUCGUAUGUACCGAAUCGGUGGAAAAAAAGGUUUUUUUGGAAAGUAUUAUGUUACGCCGUUCGGAUCUGCACUU` has a log2 enrichment of -2.85.
With `CUCAAGUCCUGUGCUACACAUCGUAUGUACCGAAUCGGGGCGGGCGGGGCGGGAAAGUAUUAUGUUACGCCGUUCGGAUCUGCACUUCCA` the log2 enrichment was -0.554.
`CAAGUCCUGUGCUACACAUCGUAUGUACCGAAUCGGGAAAGGGGAAAGGGAAAGGAAAGUAUUAUGUUACGCCGUUCGGAUCUGCACUUC` has a log2 enrichment of -0.432.

Series 4 — target: CCNB1, cyclin fold, Cln2 fusion (human); technique: yeast growth competition, sequencing; sample: yeast; setting: strong parent motif; relative to: not given; direction: higher = stronger binding
Starting sequence: BRCA2 docking peptide (human); PSIKRNLLNEFDR; partner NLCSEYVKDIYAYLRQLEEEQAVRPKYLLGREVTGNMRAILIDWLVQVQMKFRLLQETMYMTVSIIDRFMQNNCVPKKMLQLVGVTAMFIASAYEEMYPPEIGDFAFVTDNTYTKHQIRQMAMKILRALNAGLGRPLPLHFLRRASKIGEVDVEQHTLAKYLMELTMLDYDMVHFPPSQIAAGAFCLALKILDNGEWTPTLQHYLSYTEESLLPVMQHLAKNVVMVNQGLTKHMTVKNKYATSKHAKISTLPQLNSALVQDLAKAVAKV
For `R13S`, “normalised enrichment score” read 3.66.
For `I3D`, “normalised enrichment score” read -0.683.
`L7F`: “normalised enrichment score” -0.0126.
`E10A`: “normalised enrichment score” 0.577.
Under “normalised enrichment score”, `S2D` is recorded as 2.76.
`F11R` — result for “normalised enrichment score”: 0.483.
For `R5S`, “normalised enrichment score” read 0.706.
Under “normalised enrichment score”, `S2F` is recorded as 0.62.
Under “normalised enrichment score”, `N6S` is recorded as 1.89.
Under “normalised enrichment score”, `I3A` is recorded as 0.613.
For `R5K`, “normalised enrichment score” read 1.79.
`R13T`: “normalised enrichment score” 2.83.
`K4I` — result for “normalised enrichment score”: 2.9.
`S2P` — result for “normalised enrichment score”: 2.3.
Under “normalised enrichment score”, `E10H` is recorded as 0.516.
Under “normalised enrichment score”, `L7G` is recorded as 0.208.
Under “normalised enrichment score”, `K4S` is recorded as 1.99.

A few entries again (series 4):
Under “normalised enrichment score”, `S2F` is recorded as 0.62.
Under “normalised enrichment score”, `N6S` is recorded as 1.89.
Under “normalised enrichment score”, `I3A` is recorded as 0.613.
For `R5K`, “normalised enrichment score” read 1.79.
`R13T`: “normalised enrichment score” 2.83.
`K4I` — result for “normalised enrichment score”: 2.9.
`S2P` — result for “normalised enrichment score”: 2.3.
Under “normalised enrichment score”, `E10H` is recorded as 0.516.
